Results from different studies.
Each line is one published result; not all experiments were run side by side. “And” joins repeats or separate records; there may be more than shown.

Compound	target or system	test	system	setting	how to read	endpoint	result
CC12CCCC(NC(=O)c3ccc(F)cc3F)(C1)C1CC(C)(C)C1CC2 (stereo not shown)	HT-29	cell growth or viability, CCK-8	–	300 µM	–	inhibition	99.4%
CC(C)Cc1ccc(C(C)C(=O)[Se]CC(=O)Nc2cccc(C(F)(F)F)c2)cc1 (stereo not shown)	NCI60 NSCLC subpanel mean	cell growth	–	–	–	TGI	3590 nM
Cc1ncsc1-c1ccc(C(C)NC(=O)C2CC(O)CN2C(=O)C(NC(=O)CCCCCCCCCCN2CCCC(Nc3ncc(Cl)c(Nc4ccccc4S(=O)(=O)C(C)C)n3)C2)C(C)(C)C)cc1 (stereo not shown)	22Rv1	RNA-seq, item: NLGN3 mRNA	–	concentration not given	baseline: DMSO	log2 fold change	-2.24
CCC(=CCc1c(O)cc2c(c1O)C(=O)CC(c1cc(O)ccc1OC)O2)CC (stereo not shown)	HeLa	cell growth or viability, MTT	–	6.25 µM, 48 h	–	inhibition	7.11%
CCN(CC)CC(=O)Nc1cccc(-n2cc(-c3ccc4ccc(-c5cn(-c6cccc(NC(=O)CN(CC)CC)c6)nn5)cc4c3)nn2)c1	RCC4	PCR array, item: F3	–	5 x IC50, 6 h, normoxia	baseline: untreated	fold regulation	-1.8
COC1CCN(C(=O)/C=C/c2nn(Cc3cccc(C(F)(F)F)c3)c3nc(N)ncc23)CC1	FLO-1	cell growth or viability, resazurin	–	5 days	–	EC50	1670 nM
Cc1nc2ccc(Br)cc2c(=O)n1N	LoVo	cell growth or viability, LDH	–	200 µg/mL, 24 h	–	viability	62.9%
CC[C@H](NC(=O)[C@@H](NC(=O)[C@H](CC(=O)O)NC(C)=O)[C@@H](C)O)C(=O)N[C@@H](CC(=O)O)C(=O)COC(=O)c1c(C)cccc1C	THP-1 cells, LPS-primed	pyroptosis, LDH release	–	25 µM, LPS 1 µg/mL, 4 h, together with: nigericin 5 µM, 2 h	–	cell lysis	83.9%
Cc1ccc(-n2cc(CSc3nc4ccccc4n3Cc3cn(-c4ccc(C)cc4)nn3)nn2)cc1	MDA-MB-231	MTT	–	125 ppm	–	cytotoxicity	90.7%
O=C(CN1CCCCC1)Nc1ccc(C2CCCCC2)cc1	–	–	rat liver microsomes	1 µM	–	hepatic clearance	49 mL/min/kg
CN1CCCNC(=O)c2cccc(c2)C(=O)NCCCN(C)CCCNc2cccc3c2C(=O)c2cccc(c2C3=O)NCCC1	SAS	RNA-Seq, item: TRMT11 mRNA	–	1 µM, 6 h	baseline: untreated cells	log2 fold change	-0.935
O=S(=O)(N[C@H]1CCO[C@@H](C2c3ccccc3CCc3ccccc32)C1)c1ccc(OC(F)(F)F)cc1	D425	immunoblot	–	concentration not given, 24 h	–	total PARP level	decreased
Cc1cc(Cl)cc(-c2ccnc3cc(CN4C(=O)C5C(C4=O)C5(C)C)sc23)c1C[C@@H]1CNCCO1 (stereo partly shown)	CHP-212 resistant cells (pooled)	PI flow cytometry	–	0.3 µM, 24 h	–	cells in G1 phase	72.9% and 69.3% and 75.9%
CCC(=CCc1c(O)cc2c(c1O)C(=O)CC(c1cccc(OC)c1O)O2)CC (stereo not shown)	HeLa	cell growth or viability, MTT	–	1.563 µM, 48 h	–	inhibition	-1.79%
C[C@@H]1CC[C@@H]([C@@](O)(CNCc2cccc(F)c2)COCc2ccccc2)[C@H](OCc2ccccc2)C1	A2780	cell growth or viability, MTT	–	30 µM, 72 h	–	inhibition	95.3%
CNS(=O)(=O)Nc1nccc(Cc2c(C)c3ccc(Oc4ncccc4F)cc3oc2=O)c1F	SJSA-1	cell viability	–	7 days	–	IC50	13.5 nM
CC(=O)c1ccc(S(=O)(=O)NC23CCCC(C)(CCC4C2CC4(C)C)C3)cc1 (stereo not shown)	HT-29	cell growth or viability, CCK-8	–	10 µM	–	inhibition	< 50%
CS(=O)(=O)c1ccc(-c2ccc(C3CCCCC3)cc2)cn1	–	liver microsome stability	rat liver microsomes	1 µM	–	hepatic clearance	48 mL/min/kg
CCCCCCc1cccc([C@H](O)C[C@H](CO)NC(=O)CCCCCOc2ccc3ccccc3c2)c1	HeLa	CERT activity, HPLC-MS/MS lipidomics, item: ceramide 24:1	–	1 µM, 24 h, not cell-number normalised	–	ceramide level	10700 pmol/sample and 18700 pmol/sample and 18500 pmol/sample

Repeated from above:
Compound	target or system	test	system	setting	how to read	endpoint	result
CCCCCCc1cccc([C@H](O)C[C@H](CO)NC(=O)CCCCCOc2ccc3ccccc3c2)c1	HeLa	CERT activity, HPLC-MS/MS lipidomics, item: ceramide 24:1	–	1 µM, 24 h, not cell-number normalised	–	ceramide level	10700 pmol/sample and 18700 pmol/sample and 18500 pmol/sample
